Measurements collected from several papers.
Compare with care: the assays were run in different laboratories. ± gives the spread as reported.

N=C(N)NCCC[C@@H]1NC(=O)[C@H](CCCCNC(=O)CNC(=O)CNC(=O)CNC(=O)CC[C@H](NC(=O)CNC(=O)CNC(=O)CNC(=O)CN2CCN(CC(=O)O)CCN(CC(=O)O)CCN(CC(=O)O)CC2)C(=O)NCC(=O)NCC(=O)NCC(=O)NCCCC[C@@H]2NC(=O)[C@@H](Cc3ccccc3)NC(=O)[C@H](CC(=O)O)NC(=O)CNC(=O)[C@H](CCCNC(=N)N)NC2=O)NC(=O)[C@@H](Cc2ccccc2)NC(=O)[C@H](CC(=O)O)NC(=O)CNC1=O [indium-111 labelled] — tissue uptake (female athymic nu/nu mice, lungs; intravenous, 72 h): 0.32 ± 0.06 %ID/g
Cc1cc(O)cc(C)c1C[C@H](NC(=O)[C@@H]1CCCN1C(=O)[C@H](CCCNC(=N)N)NC(=O)[C@H](CCCNC(=N)N)N(C)C(=O)[C@@H]1CCCN1C(=O)[C@@H](CC(C)C)NC(=O)[C@@H](CC(C)C)NC(=O)[C@@H](CC(C)C)NC(=O)[C@@H](CC(C)C)NC(=O)[C@H](CCCCN)NC(=O)CN1CCN(CC(=O)O)CCN(CC(=O)O)CCN(CC(=O)O)CC1)C(=O)N[C@H](C(=O)N[C@@H](CC(C)C)C(=O)O)C(C)(C)C [lutetium-177 labelled] — tissue uptake (CF-1 mouse, liver; iv, 370 kBq, 1 h): 5.64 ± 0.47 %ID/g
N=C(N)NCCC[C@@H]1NC(=O)[C@H](CCCCNC(=O)CCOCCOCCOCCOCCNC(=O)CC[C@H](NC(=O)CCOCCOCCOCCOCCNC(=O)CN2CCN(CC(=O)O)CCN(CC(=O)O)CCN(CC(=O)O)CC2)C(=O)NCCOCCOCCOCCOCCC(=O)NCCCC[C@@H]2NC(=O)[C@@H](Cc3ccccc3)NC(=O)[C@H](CC(=O)O)NC(=O)CNC(=O)[C@H](CCCNC(=N)N)NC2=O)NC(=O)[C@@H](Cc2ccccc2)NC(=O)[C@H](CC(=O)O)NC(=O)CNC1=O [copper-64 labelled] — tissue uptake (athymic nu/nu mouse, female, muscle; intravenous, 0.5 h): 1.28 ± 0.11 %ID/g
CC(C)C[C@H](NC(=O)CN1CCN(CC(=O)O)CCN(CC(=O)O)CC1)C(=O)N[C@@H](CC(C)C)C(=O)N[C@@H](CC(C)C)C(=O)N[C@@H](CC(C)C)C(=O)N[C@@H](CCCNC(=N)N)C(=O)N[C@H](C(=O)N[C@@H](CCCCN)C(=O)N[C@@H](CCCNC(=N)N)C(N)=O)C(C)C [copper-64 labelled] — tissue uptake (CD1 mouse, male, heart; intravenous, 15 min, blocked, unlabelled peptide 0.1 µmol): 4.3 ± 0.7 %ID/g
CSCC[C@H](NC(=O)[C@H](CC(C)C)NC(=O)[C@H](Cc1c[nH]cn1)NC(=O)CNC(=O)[C@@H](NC(=O)[C@H](C)NC(=O)[C@H](Cc1c[nH]c2ccccc12)NC(=O)[C@H](CCC(N)=O)NC(=O)CCOCCOCCOCCOCCNC(=O)CN1CCN(CC(=O)O)CCN(CC(=O)O)CCN(CC(=O)O)CC1)C(C)C)C(N)=O [indium-111 labelled] — tissue uptake (Swiss nu/nu mouse, male, PC-3 tumour xenograft, pancreas; intravenous, 10 pmol, 4 h): 17.5 ± 2.8 %ID/g
CCCC[C@H](NC(=O)COCCOCCNC(=O)CN1CCN(CC(=O)O)CCN(CC(=O)O)CC1)C(=O)N[C@H]1CC(=O)NCCCC[C@@H](C(N)=O)NC(=O)[C@H](Cc2c[nH]c3ccccc23)NC(=O)[C@H](CCCNC(=N)N)NC(=O)[C@@H](Cc2ccccc2)NC(=O)[C@H](Cc2c[nH]cn2)NC1=O [copper-64 labelled] — tissue uptake (C57 mice, pancreas; intravenous, 0.37 MBq, 4 h): 0.17 ± 0.11 %ID/g
N=C(N)NCCC[C@@H]1NC(=O)[C@H](CCCCNC(=O)CNC(=O)CNC(=O)CNC(=O)CC[C@H](NC(=O)CNC(=O)CNC(=O)CNC(=O)CC[C@H](NC(=O)CN2CCN(CC(=O)O)CCN(CC(=O)O)CCN(CC(=O)O)CC2)C(=O)NCC(=O)NCC(=O)NCC(=O)N[C@@H](CCC(=O)NCC(=O)NCC(=O)NCC(=O)NCCCC[C@@H]2NC(=O)[C@@H](Cc3ccccc3)NC(=O)[C@H](CC(=O)O)NC(=O)CNC(=O)[C@H](CCCNC(=N)N)NC2=O)C(=O)NCC(=O)NCC(=O)NCC(=O)NCCCC[C@@H]2NC(=O)[C@@H](Cc3ccccc3)NC(=O)[C@H](CC(=O)O)NC(=O)CNC(=O)[C@H](CCCNC(=N)N)NC2=O)C(=O)NCC(=O)NCC(=O)NCC(=O)NCCCC[C@@H]2NC(=O)[C@@H](Cc3ccccc3)NC(=O)[C@H](CC(=O)O)NC(=O)CNC(=O)[C@H](CCCNC(=N)N)NC2=O)NC(=O)[C@@H](Cc2ccccc2)NC(=O)[C@H](CC(=O)O)NC(=O)CNC1=O [indium-111 labelled] — tissue uptake (female athymic nu/nu mice, muscle; intravenous, 111 kBq, 24 h): 0.93 ± 0.54 %ID/g
CCCC[C@H](NC(=O)CCCCCCCNC(=O)CN1CCN(CC(=O)O)CCN(CC(=O)O)CC1)C(=O)N[C@H]1CC(=O)NCCCC[C@@H](C(N)=O)NC(=O)[C@H](Cc2c[nH]c3ccccc23)NC(=O)[C@H](CCCNC(=N)N)NC(=O)[C@@H](Cc2ccccc2)NC(=O)[C@H](Cc2c[nH]cn2)NC1=O [copper-64 labelled] — tissue uptake (C57 mice, tumor; intravenous, 0.37 MBq, 0.5 h): 5.69 ± 0.23 %ID/g
CCCC[C@H](NC(=O)CNC(=O)CNC(=O)CN1CCN(CC(=O)O)CCN(CC(=O)O)CCN(CC(=O)O)CC1)C(=O)N[C@H]1CC(=O)NCCCC[C@@H](C(N)=O)NC(=O)[C@H](Cc2c[nH]c3ccccc23)NC(=O)[C@H](CCCNC(=N)N)NC(=O)[C@@H](Cc2ccccc2)NC(=O)[C@H](Cc2c[nH]cn2)NC1=O [lutetium-177 labelled] — tissue uptake (C57 mouse, female, whole blood; intravenous, 0.037 MBq, 0.5 h): 2.98 ± 0.38 %ID/g
CC(C)C[C@H](NC(=O)[C@H](Cc1ccc(O)cc1)NC(=O)[C@@H](CCCNC(=N)N)NC(=O)[C@@H](CO)NC(=O)[C@H](Cc1ccccc1)NC(=O)[C@H](CC1CCCCC1)NC(=O)[C@H](CC(=O)O)NC(=O)CN1CCCN2CCN(CCCN(CC(=O)O)CC2)CC1)C(=O)N[C@@H](Cc1c[nH]c2ccccc12)C(=O)N[C@@H](CO)C(=O)O [copper-64 labelled] — tissue uptake (female NMRI nude mice, blood; 22 h p.i.): 0.4 ± 0.1 %ID/g
N=C(N)NCCC[C@@H]1NC(=O)[C@H](CCCCNC(=O)CC[C@H](NC(=O)CC[C@H](NC(=O)CN2CCN(CC(=O)O)CCN(CC(=O)O)CCN(CC(=O)O)CC2)C(=O)N[C@@H](CCC(=O)NCCCC[C@@H]2NC(=O)[C@@H](Cc3ccccc3)NC(=O)[C@H](CC(=O)O)NC(=O)CNC(=O)[C@H](CCCNC(=N)N)NC2=O)C(=O)NCCCC[C@@H]2NC(=O)[C@@H](Cc3ccccc3)NC(=O)[C@H](CC(=O)O)NC(=O)CNC(=O)[C@H](CCCNC(=N)N)NC2=O)C(=O)NCCCC[C@@H]2NC(=O)[C@@H](Cc3ccccc3)NC(=O)[C@H](CC(=O)O)NC(=O)CNC(=O)[C@H](CCCNC(=N)N)NC2=O)NC(=O)[C@@H](Cc2ccccc2)NC(=O)[C@H](CC(=O)O)NC(=O)CNC1=O [indium-111 labelled] — tissue uptake (female athymic nu/nu mice, lungs; intravenous, 72 h): 0.62 ± 0.36 %ID/g
Cc1cc(O)cc(C)c1C[C@H](NC(=O)[C@@H]1CCCN1C(=O)[C@H](CCCNC(=N)N)NC(=O)[C@H](CCCNC(=N)N)N(C)C(=O)[C@@H]1CCCN1C(=O)[C@H](CCCCN)NC(=O)[C@@H](CC(C)C)NC(=O)[C@@H](CC(C)C)NC(=O)[C@@H](CC(C)C)NC(=O)[C@@H](CC(C)C)NC(=O)CN1CCN(CC(=O)O)CCN(CC(=O)O)CCN(CC(=O)O)CC1)C(=O)N[C@H](C(=O)N[C@@H](CC(C)C)C(=O)O)C(C)(C)C [lutetium-177 labelled] — tissue uptake (CF-1 mouse, blood; iv, 370 kBq, 4 h): 0.03 ± 0.03 %ID/g
